Assay results pooled from the literature.
Protocols differ between the studies behind these lines. ± gives the spread as reported. No end group written: not given here.
B1: RGS1 284-459 (Arabidopsis thaliana, UniProt Q8H1F2); chain KEEFRPVDPNEPLDKLLLNKRFRHSFMEFADSCYAGETLHFFEEVYEHGKIPEDDSIRRIYMARHIMEKFIVAGAEMELNLSHKTRQEILTTQDLTHTDLFKNALNEVMQLIKMNLVRDYWSSIYFIKFKEEESCHEAMHKEGYSFSSPRLSSVQGSDDPFYQEHMSKSSRCSSPG
B2: DIS3 D551N (Saccharomyces cerevisiae, UniProt Q08162); sequence looked up; chain MSVPAIAPRRKRLADGLSVTQKVFVRSRNGGATKIVREHYLRSDIPCLSRSCTKCPQIVVPDAQNELPKFILSDSPLELSAPIGKHYVVLDTNVVLQAIDLLENPNCFFDVIVPQIVLDEVRNKSYPVYTRLRTLCRDSDDHKRFIVFHNEFSEHTFVERLPNETINDRNDRAIRKTCQWYSEHLKPYDINVVLVTNDRLNREAATKEVESNIITKSLVQYIELLPNADDIRDSIPQMDSFDKDLERDTFSDFTFPEYYSTARVMGGLKNGVLYQGNIQISEYNFLEGSVSLPRFSKPVLIVGQKNLNRAFNGDQVIVELLPQSEWKAPSSIVLDSEHFDVNDNPDIEAGDDDDNNESSSNTTVISDKQRRLLAKDAMIAQRSKKIQPTAKVVYIQRRSWRQYVGQLAPSSVDPQSSSTQNVFVILMDKCLPKVRIRTRRAAELLDKRIVISIDSWPTTHKYPLGHFVRDLGTIESAQAETEALLLEHDVEYRPFSKKVLECLPAEGHDWKAPTKLDDPEAVSKDPLLTKRKDLRDKLICSIDPPGCVDINDALHAKKLPNGNWEVGVHIADVTHFVKPGTALDAEGAARGTSVYLVDKRIDMLPMLLGTDLCSLKPYVDRFAFSVIWELDDSANIVNVNFMKSVIRSREAFSYEQAQLRIDDKTQNDELTMGMRALLKLSVKLKQKRLEAGALNLASPEVKVHMDSETSDPNEVEIKKLLATNSLVEEFMLLANISVARKIYDAFPQTAMLRRHAAPPSTNFEILNEMLNTRKNMSISLESSKALADSLDRCVDPEDPYFNTLVRIMSTRCMMAAQYFYSGAYSYPDFRHYGLAVDIYTHFTSPIRRYCDVVAHRQLAGAIGYEPLSLTHRDKNKMDMICRNINRKHRNAQFAGRASIEYYVGQVMRNNESTETGYVIKVFNNGIVVLVPKFGVEGLIRLDNLTEDPNSAAFDEVEYKLTFVPTNSDKPRDVYVFDKVEVQVRSVMDPITSKRKAELLLK
B3: Sema6a 19-571 K393D (Mus musculus, UniProt O35464); sequence looked up; chain GFPEDSEPISISHGNYTKQYPVFVGHKPGRNTTQRHRLDIQMIMIMNRTLYVAARDHIYTVDIDTSHTEEIYCSKKLTWKSRQADVDTCRMKGKHKDECHNFIKVLLKKNDDTLFVCGTNAFNPSCRNYRVDTLETFGDEFSGMARCPYDAKHANIALFADGKLYSATVTDFLAIDAVIYRSLGDSPTLRTVKHDSKWLKEPYFVQAVDYGDYIYFFFREIAVEYNTMGKVVFPRVAQVCKNDMGGSQRVLEKQWTSFLKARLNCSVPGDSHFYFNILQAVTDVIRINGRDVVLATFSTPYNSIPGSAVCAYDMLDIANVFTGRFKEQKSPDSTWTPVPDERVPKPRPGCCAGSSSLEKYATSNEFPDDTLNFIDTHPLMDEAVPSIINRPWFLRTMVRYRLTKIAVDNAAGPYQNHTVVFLGSEKGIILKFLARIGSSGFLNGSLFLEEMNVYNPEKCSYDGVEDKRIMGMQLDRASGSLYVAFSTCVIKVPLGRCERHGKCKKTCIASRDPYCGWVRESGSCAHLSPLSRLTFEQDIERGNTDGLGDCHNS
B4: TIMP3 24-144 (Homo sapiens, UniProt P35625); sequence looked up; chain CTCSPSHPQDAFCNSDIVIRAKVVGKKLVKEGPFGTLVYTIKQMKMYRGFTKMPHVQYIHTEASESLCGLKLEVNKYQYLLTGRVYDGKMYTGLCNFVERWDQLTLSQRKGLNYRYHLGCN
B5: NR1I3 105-348 (Homo sapiens, UniProt Q14994-2); sequence looked up; chain QLSKEQEELIRTLLGAHTRHMGTMFEQFVQFRPPAHLFIHHQPLPTLAPVLPLVTHFADINTFMVLQVIKFTKDLPVFRSLPIEDQISLLKGAAVEICHIVLNTTFCLQTQNFLCGPLRYTIEDGARVGFQVEFLELLFHFHGTLRKLQLQEPEYVLLAAMALFSPDRPGVTQRDEIDQLQEEMALTLQSYIKGQQRRPRDRFLYAKLLGLLAELRSINEAYGYQIQHIQGLSAMMPLLQEICS
B6: RTT103 1-131 R108N (Saccharomyces cerevisiae, UniProt Q05543); chain MPFSSEQFTTKLNTLEDSQESISSASKWLLLQYRDAPKVAEMWKEYMLRPSVNTRRKLLGLYLMNHVVQQAKGQKIIQFQDSFGKVAAEVLGRINQEFPRDLKKKLSNVVNILKERNIFSKQVVNDIERSL
B7: GORASP1 PDZ domain (Homo sapiens); chain EGFHLHGVQENSPAQQAGLEPYFDFIITIGHSRLNKENDTLKALLKANVEKPVKLEVFNMKTMRVREVEVVPSNMWGGQGLLGASVRFCSF
B8: Apoa5 (Mus musculus, UniProt Q8C7G5); sequence looked up; chain RKSLWDYFSQNSWSKGVMGQPQKLAQENLKGSFEQDLYNMNNYLEKLGPLRGPGKEPPLLAQDPEGIRKQLQQELGEVSSRLEPYMAAKHQQVGWNLEGLRQQLKPYTAELMEQVGLSVQELQEQLRVVGEDTKAQLLGGVDEALNLLQDMQSRVLHHTDRVKELFHPYAERLVTGIGHHVQELHRSVAPHAAASPARLSRCVQTLSHKLTRKAKDLHTSIQRNLDQLRDELSAFIRVSTDGAEDGDSLDPQALSEEVRQRLQAFRHDTYLQIAAFTQAIDQETEEIQHQLAPPPPSHSAFAPELGHSDSNKALSRLQSRLDDLWEDIAYGLQDQGHSHLSDPEGHSG
B9: erenumab; V domains shown; sequence looked up; VH QVQLVESGGGVVQPGRSLRLSCAASGFTFSSFGMHWVRQAPGKGLEWVAVISFDGSIKYSVDSVKGRFTISRDNSKNTLFLQMNSLRAEDTAVYYCARDRLNYYDSSGYYHYKYYGMAVWGQGTTVTVSS; VL QSVLTQPPSVSAAPGQKVTISCSGSSSNIGNNYVSWYQQLPGTAPKLLIYDNNKRPSGIPDRFSGSKSGTSTTLGITGLQTGDEADYYCGTWDSRLSAVVFGGGTKLTVL
UniProt Q6PDX6, sequence (whole entry, looked up): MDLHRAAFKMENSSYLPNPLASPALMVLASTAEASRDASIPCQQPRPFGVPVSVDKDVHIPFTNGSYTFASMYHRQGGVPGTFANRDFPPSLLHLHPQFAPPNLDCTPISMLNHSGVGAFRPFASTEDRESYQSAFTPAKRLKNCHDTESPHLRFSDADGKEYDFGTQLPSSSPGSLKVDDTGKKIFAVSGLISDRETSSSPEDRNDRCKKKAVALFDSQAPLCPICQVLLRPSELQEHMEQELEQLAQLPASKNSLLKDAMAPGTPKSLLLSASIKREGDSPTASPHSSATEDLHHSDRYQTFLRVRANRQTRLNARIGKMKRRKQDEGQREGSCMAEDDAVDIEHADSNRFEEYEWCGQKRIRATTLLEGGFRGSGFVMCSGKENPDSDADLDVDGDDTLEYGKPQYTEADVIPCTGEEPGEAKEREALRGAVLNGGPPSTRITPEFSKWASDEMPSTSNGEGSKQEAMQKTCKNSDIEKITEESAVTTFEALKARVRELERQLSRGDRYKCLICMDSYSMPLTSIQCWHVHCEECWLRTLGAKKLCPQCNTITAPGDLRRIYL
UniProt Q9UNA0, sequence (whole entry, looked up): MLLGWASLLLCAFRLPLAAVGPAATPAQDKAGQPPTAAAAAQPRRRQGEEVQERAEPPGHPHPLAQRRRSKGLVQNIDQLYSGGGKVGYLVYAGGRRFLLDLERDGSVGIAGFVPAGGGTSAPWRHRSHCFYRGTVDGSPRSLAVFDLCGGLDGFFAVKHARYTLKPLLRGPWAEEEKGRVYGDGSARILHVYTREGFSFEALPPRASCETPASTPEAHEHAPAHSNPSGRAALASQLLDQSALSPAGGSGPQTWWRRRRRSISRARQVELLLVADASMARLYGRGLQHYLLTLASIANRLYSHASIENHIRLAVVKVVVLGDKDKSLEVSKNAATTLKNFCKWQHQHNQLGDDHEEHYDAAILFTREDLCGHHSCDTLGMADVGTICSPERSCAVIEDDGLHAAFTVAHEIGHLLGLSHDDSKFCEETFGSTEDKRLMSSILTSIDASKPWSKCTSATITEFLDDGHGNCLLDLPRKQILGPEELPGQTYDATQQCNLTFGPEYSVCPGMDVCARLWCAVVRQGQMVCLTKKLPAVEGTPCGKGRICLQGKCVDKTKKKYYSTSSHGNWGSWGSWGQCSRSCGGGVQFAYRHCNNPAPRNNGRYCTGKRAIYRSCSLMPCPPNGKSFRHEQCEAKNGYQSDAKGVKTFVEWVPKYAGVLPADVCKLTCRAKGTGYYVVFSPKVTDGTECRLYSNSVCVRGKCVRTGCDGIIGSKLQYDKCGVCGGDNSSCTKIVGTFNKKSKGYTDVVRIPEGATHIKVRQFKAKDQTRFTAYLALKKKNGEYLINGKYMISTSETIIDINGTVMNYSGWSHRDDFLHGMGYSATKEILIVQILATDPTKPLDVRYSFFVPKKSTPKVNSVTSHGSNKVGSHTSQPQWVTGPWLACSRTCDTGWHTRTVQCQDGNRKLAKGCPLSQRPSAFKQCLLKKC
UniProt P29218, sequence (whole entry, looked up): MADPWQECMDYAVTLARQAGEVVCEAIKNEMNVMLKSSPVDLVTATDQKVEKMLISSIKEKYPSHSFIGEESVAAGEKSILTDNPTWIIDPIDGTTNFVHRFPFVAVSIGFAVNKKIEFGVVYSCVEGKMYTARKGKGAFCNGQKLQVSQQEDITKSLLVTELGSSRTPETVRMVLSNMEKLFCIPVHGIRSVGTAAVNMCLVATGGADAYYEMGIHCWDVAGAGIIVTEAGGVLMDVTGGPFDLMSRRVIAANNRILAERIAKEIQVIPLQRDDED
UniProt Q15648, sequence (whole entry, looked up): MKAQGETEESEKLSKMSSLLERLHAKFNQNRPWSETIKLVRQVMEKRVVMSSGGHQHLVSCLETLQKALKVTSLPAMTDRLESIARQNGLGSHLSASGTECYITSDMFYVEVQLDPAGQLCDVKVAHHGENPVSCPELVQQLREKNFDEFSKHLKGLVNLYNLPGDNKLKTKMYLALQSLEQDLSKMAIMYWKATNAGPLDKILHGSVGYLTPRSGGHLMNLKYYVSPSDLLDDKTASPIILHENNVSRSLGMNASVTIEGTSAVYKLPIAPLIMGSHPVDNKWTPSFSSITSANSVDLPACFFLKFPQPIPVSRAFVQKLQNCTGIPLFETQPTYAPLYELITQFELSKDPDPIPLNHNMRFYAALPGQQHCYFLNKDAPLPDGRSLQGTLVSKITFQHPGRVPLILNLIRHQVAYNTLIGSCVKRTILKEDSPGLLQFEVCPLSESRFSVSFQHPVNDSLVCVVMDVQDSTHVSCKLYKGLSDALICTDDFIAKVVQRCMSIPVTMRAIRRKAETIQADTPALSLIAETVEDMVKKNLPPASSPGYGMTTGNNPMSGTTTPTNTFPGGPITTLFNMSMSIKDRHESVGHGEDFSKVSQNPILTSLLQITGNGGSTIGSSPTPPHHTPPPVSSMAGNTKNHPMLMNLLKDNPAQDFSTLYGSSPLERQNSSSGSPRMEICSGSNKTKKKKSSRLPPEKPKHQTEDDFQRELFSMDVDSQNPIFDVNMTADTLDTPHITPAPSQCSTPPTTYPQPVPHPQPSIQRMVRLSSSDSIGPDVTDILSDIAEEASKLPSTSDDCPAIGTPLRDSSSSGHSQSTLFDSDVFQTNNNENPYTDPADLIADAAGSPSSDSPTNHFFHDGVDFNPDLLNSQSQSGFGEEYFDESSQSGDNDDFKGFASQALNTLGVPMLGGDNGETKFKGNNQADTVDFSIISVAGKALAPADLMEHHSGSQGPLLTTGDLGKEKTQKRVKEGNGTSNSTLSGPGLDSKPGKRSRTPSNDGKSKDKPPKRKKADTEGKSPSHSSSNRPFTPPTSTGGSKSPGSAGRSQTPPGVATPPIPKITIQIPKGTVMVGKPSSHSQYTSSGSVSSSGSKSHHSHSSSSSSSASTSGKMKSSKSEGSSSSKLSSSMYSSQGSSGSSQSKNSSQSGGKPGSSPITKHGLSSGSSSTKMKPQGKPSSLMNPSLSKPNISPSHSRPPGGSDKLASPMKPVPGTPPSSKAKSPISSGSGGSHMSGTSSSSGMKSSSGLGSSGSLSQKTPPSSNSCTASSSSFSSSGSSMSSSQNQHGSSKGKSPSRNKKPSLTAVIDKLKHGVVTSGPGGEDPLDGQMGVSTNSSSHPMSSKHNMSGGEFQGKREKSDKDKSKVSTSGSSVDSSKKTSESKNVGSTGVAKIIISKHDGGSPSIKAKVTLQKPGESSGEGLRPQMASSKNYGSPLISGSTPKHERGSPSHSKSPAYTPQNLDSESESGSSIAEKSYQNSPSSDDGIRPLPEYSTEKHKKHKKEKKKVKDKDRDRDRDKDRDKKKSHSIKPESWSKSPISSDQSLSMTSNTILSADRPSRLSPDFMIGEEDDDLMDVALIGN
UniProt Q6RVA9, sequence (whole entry, looked up): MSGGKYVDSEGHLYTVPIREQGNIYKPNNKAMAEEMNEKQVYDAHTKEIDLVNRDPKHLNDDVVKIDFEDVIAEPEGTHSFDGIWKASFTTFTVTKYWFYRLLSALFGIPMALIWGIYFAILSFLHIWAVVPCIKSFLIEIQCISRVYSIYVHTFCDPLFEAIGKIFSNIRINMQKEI
UniProt Q6PL18, sequence (whole entry, unmodified, looked up): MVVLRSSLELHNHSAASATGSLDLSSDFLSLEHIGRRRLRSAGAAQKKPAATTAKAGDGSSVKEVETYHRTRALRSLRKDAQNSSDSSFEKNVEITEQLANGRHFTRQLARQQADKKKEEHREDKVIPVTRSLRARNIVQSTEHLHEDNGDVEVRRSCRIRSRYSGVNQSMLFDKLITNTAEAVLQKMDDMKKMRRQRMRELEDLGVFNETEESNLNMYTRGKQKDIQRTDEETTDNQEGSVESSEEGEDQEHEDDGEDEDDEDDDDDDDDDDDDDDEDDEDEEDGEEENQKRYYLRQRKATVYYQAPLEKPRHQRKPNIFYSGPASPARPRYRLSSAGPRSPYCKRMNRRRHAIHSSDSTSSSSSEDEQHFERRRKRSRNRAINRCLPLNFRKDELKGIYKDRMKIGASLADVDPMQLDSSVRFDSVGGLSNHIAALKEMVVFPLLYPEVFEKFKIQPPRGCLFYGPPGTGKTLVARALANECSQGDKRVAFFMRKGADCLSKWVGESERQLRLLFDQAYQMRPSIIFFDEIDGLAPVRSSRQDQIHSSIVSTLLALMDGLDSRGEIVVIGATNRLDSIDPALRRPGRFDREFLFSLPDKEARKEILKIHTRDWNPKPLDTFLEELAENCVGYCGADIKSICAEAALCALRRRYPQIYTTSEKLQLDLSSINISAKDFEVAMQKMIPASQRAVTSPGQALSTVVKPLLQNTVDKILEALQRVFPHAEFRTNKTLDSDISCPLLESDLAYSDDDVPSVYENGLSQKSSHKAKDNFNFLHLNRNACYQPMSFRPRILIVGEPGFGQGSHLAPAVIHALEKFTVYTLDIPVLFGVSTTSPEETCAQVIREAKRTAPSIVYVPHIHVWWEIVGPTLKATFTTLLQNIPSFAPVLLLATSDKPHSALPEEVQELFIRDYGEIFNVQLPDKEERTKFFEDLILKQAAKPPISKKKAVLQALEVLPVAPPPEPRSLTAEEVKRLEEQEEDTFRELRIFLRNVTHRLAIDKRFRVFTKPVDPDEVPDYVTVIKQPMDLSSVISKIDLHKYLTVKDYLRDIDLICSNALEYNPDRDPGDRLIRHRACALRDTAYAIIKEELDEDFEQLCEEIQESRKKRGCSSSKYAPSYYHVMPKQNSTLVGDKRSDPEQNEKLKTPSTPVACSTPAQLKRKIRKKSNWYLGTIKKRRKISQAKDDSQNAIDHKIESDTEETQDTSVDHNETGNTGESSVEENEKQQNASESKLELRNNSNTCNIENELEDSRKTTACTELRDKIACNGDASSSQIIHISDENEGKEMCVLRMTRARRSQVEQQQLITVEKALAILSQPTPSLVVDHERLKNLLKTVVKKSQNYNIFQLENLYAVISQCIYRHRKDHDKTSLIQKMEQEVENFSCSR

For `rob (Escherichia coli, UniProt P0ACI0)`, the transcription activation was 73% (rpoD R603A (Escherichia coli, UniProt P00579); β-galactosidase reporter; together with: micF promoter; reference: wild-type σ70, higher = more activation).
With `RRRRRRC / CGSFPPWVKKTEV (peptide; cyclic, disulfide-linked poly-Arg)` the koff was 0.0732 s⁻¹ (DLG4 309-422 (Homo sapiens, UniProt P78352); SPR; peptide).
Under “GTP hydrolysis rate constant”, `B1 (RGS1 284-459)` is recorded as 0.346 min⁻¹ (GPA1 (Arabidopsis thaliana, UniProt P18064); activator, single turnover GTPase assay; 250 nM).
The IC50 of `trichosanthin V232K/N236D (Trichosanthes kirilowii)` is reported as 6.28 nM (ribosomal P protein C-terminal peptide residues 105-115 (Homo sapiens); protein synthesis inhibition, inhibitor; rabbit reticulocyte lysate).
`QDQGLYL (VAT 739-745 (Thermoplasma acidophilum, UniProt O05209))` gave a peptide hydrolysis of 2 fold (20S proteasome core particle (Thermoplasma acidophilum, UniProt P25156); LFP hydrolysis, activator; peptide; 0.6 nM CP, 59 °C; reference: TaCP alone, higher = more fluorescence).
`TP53 R172H (Mus musculus)` — result for “reduction of PLA signal”: 73% (Creb1 S133A (Mus musculus, UniProt Q01147-1); proximity ligation; PDAC; reference: WT CREB1, higher = greater loss of interaction).
`B2 (DIS3 D551N)` — result for “relative initial rate”: 13 fold (CSL4/RRP4/RRP40/RRP41/RRP42/RRP46/RRP43/RRP45/MTR3 Exo9 core (Saccharomyces cerevisiae); polyA RNA endoribonuclease degradation; reference: Rrp44 exo- alone, higher = faster).
`B3 (Sema6a 19-571 K393D)` — result for “fold weaker binding”: over 200 fold (PlxnA2 35-703 (Mus musculus, UniProt P70207); SPR; pH 7.5, 25 °C, NaCl 150 mM; reference: wild type, higher = weaker binding).
For `Rnf220 (Mus musculus, UniProt Q6PDX6)`, the polyubiquitination level was 4.41 (Gria1 (Mus musculus, UniProt P23818); GluA1 polyubiquitination; HEK293; reference: control without RNF220, higher = more ubiquitination).
For `B4 (TIMP3 24-144)`, the Ki was 1.01 nM (ADAMTS5 262-566 (Homo sapiens, UniProt Q9UNA0); inhibitor, steady-state kinetics; 1 h, pH 7.5, 37 °C).
`HLA-DRA/HLA-DRB1 heterodimer, on cells (Homo sapiens)`: “fraction of 1-particle spots” 82 ± 6% (itself; single-particle fluorescence imaging; 37 °C).
The activation factor of `B5 (NR1I3 105-348)` is reported as 100 fold (MED1 527-774 (Homo sapiens, UniProt Q15648); two-hybrid; COS1; reference: empty VP16-AD, higher = more interaction).
`Atp1a1 F97A/F100A (Rattus norvegicus)` has a coprecipitated α1 of over 80% (CAV1 (Sus scrofa, UniProt Q6RVA9); co-IP; AAC-19, lysate; reference: AAC-19 cells, higher = greater decrease).
For `B6 (RTT103 1-131 R108N)`, “reduction in recruitment” read 8 fold (RPO21 CTD, two heptad repeats, phosphoserine at both Ser2; ChIP; PMA1 gene, in cells; reference: wild type, higher = greater reduction).
`NRTN fragment Y119A (Homo sapiens)` has an EC50 of 0.013 µg/mL (RET 29-635 (Homo sapiens, UniProt P07949); MAPK signaling, SRE luciferase reporter, agonist; TGW neuroblastoma).
`TIMP2 Y90E (Homo sapiens)` gave an inhibition of 5 fold (MMP2 mature, propeptide removed; inhibitor, steady-state kinetics; 15 min, 25 °C; reference: wild-type TIMP-2, higher = stronger inhibition).
`B7 (GORASP1 PDZ domain)` has a binding intensity of 0.23 ± 0.03 (RPS6KA1 fragment, pS732 (Homo sapiens); holdup assay; E. coli lysate; higher = more PDZ depleted).
The pSTAT5+ Tregs of `IL2 Y45K/E62K (Homo sapiens)` is reported as 3000 fold (IL2RA (Homo sapiens, UniProt P01589); flow cytometry; human PBMCs; reference: wildtype IL2, higher = greater reduction).
For `B8 (Apoa5)`, the koff was 0.000832 s⁻¹ (ANGPTL3/ANGPTL8; SPR; pH 7.4, 25 °C, NaCl 150 mM, together with: CaCl2 4 mM).
For `SGRGK(Ac)GGKGL (histone H4 residues 1-10; acetylated K5)`, “molecule per partner” read 1.26 (ATAD2 bromodomain 981-1108 C1101A, Cys1057-Cys1079 disulfide (Homo sapiens, UniProt Q6PL18); ITC; peptide; pH 7.0, 5 °C, NaCl 150 mM, fully formed disulfide).
With `EGF mature, 125I label (mouse)` the EC50 was 2.6 nM (EGFR (Homo sapiens, UniProt P00533); receptor autophosphorylation, agonist; CHO; 2 min, 37 °C).
The melting temperature of `TPDYLMQLMNDKKLMSSLPNFSGIFNHLERLLDEAISRVRKDMYNDTLNGSTEK (Qki 14-67 C35S/E48A (Mus musculus, UniProt Q9QYS9))` is reported as 40 °C (itself; CD thermal melting; 50 µM).
`clusterin (Homo sapiens, UniProt P10909)`: “maximal Aβ42 fibrillation” 49% (APP Aβ42 (UniProt P05067); ThT fluorescence; 0.3 µM, 37 °C; reference: Aβ42 or BSA alone, higher = more fibrillation).
`CALB1 (Homo sapiens, UniProt P05937)` has a relative activity of 600% (IMPA1 (Homo sapiens, UniProt P29218); enzyme activity, colorimetric phosphate assay; 35 min, 37 °C; reference: wild-type IMPase alone, higher = more activity).
`B9 (erenumab)` has a pKB of 6.59 (CALCR/RAMP1 on cells (Homo sapiens); cAMP production, antagonist, global Gaddum-Schild; antibody, Cos7; together with: amylin).

Excerpt of the above:
`B3 (Sema6a 19-571 K393D)` — result for “fold weaker binding”: over 200 fold (PlxnA2 35-703 (Mus musculus, UniProt P70207); SPR; pH 7.5, 25 °C, NaCl 150 mM; reference: wild type, higher = weaker binding).
The pSTAT5+ Tregs of `IL2 Y45K/E62K (Homo sapiens)` is reported as 3000 fold (IL2RA (Homo sapiens, UniProt P01589); flow cytometry; human PBMCs; reference: wildtype IL2, higher = greater reduction).
For `SGRGK(Ac)GGKGL (histone H4 residues 1-10; acetylated K5)`, “molecule per partner” read 1.26 (ATAD2 bromodomain 981-1108 C1101A, Cys1057-Cys1079 disulfide (Homo sapiens, UniProt Q6PL18); ITC; peptide; pH 7.0, 5 °C, NaCl 150 mM, fully formed disulfide).
`QDQGLYL (VAT 739-745 (Thermoplasma acidophilum, UniProt O05209))` gave a peptide hydrolysis of 2 fold (20S proteasome core particle (Thermoplasma acidophilum, UniProt P25156); LFP hydrolysis, activator; peptide; 0.6 nM CP, 59 °C; reference: TaCP alone, higher = more fluorescence).
